Measurements from different studies.
Parts stem from different laboratories: compare values within a part only.

Set 1
Target: RING finger protein unkempt homolog, zinc fingers 1-6, GST-SBP tag (UNK, Homo sapiens, UniProt Q9C0B0, residues 30-357)
Sequence of UniProt Q9C0B0 (30-357, looked up): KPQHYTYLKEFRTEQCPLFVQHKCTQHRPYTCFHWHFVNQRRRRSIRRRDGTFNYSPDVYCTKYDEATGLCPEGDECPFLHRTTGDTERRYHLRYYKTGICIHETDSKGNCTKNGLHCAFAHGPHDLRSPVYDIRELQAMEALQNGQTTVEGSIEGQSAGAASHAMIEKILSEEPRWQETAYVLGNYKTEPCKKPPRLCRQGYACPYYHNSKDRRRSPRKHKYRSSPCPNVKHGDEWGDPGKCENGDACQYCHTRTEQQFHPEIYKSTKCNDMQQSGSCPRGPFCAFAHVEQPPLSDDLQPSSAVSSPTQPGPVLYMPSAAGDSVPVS
Technique: RNA Bind-n-Seq
Molecule type: RNA
Sample: in vitro
Tested at: not given
Setting: RNA with constant flanks, human and mouse sites, ends assumed
Relative to: input RNA pool
Direction: higher = stronger binding
| Strand | bound/input enrichment |
| --- | --- |
| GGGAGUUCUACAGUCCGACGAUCGUUGGUCAGUUCUACUUCUUGAUCCGGAAGCGAAUUCAUCUCCGAGCUGAGGAUGCCUUGUUUUUCUUUGUCAACAAUGUCAUUCCACCCACCAGUGCCACAAUGGGUCAGCUGUACCAGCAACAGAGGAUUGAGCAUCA | 0.143 ratio |
| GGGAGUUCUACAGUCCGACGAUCAUUAUUCUAUAUUUAAACUGUUGGUCAGAAAAUGAUCUGCAAUUCAAGUAAGUCUGCAUUACUUUUUUCUUUAAAAAGUACUUUAACAUGCCUUAUUUAUUAUAUUAGCAAAUGAGCUAACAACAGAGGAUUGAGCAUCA | 0.537 ratio |
| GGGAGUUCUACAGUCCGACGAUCGAACAGCUCAAGAAGAAAACACUGGAGGUGACAGUUUGGGAUUAUGAUAGAUUUUCAUCCAACGACUUCCUUGGGGAGGUAUUGAUUGAUUUAUCUAGCACAUCUCACCUCGAUAACACUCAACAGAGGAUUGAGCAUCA | 0.193 ratio |
| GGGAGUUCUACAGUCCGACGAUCGGCUUCUCCAACUGUAGAGGUACAGAUUGUCUUAACCUGUUCUUUUCUGUACAGACUUAAAAUUUCUAGUGGCUUUUAUUUUUCUUUGUAUUUUAAUUUUCCUACAAAGUCCUUUUUGGACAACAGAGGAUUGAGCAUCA | 11 ratio |
| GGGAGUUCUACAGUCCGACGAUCCGAUGUGCUCAAAAGAGAUAUAAUGGAGGACUGCUAGAAUUUCAUAAAAGCUUACAAGAAAUUGGAGACAAAAAUGACCAUUGGUUUGACAUAGAUCCUACAGAAGAUGAAGAUUUACCUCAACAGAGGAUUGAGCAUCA | 0.198 ratio |
| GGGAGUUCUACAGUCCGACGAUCAAAGAGAAUGGAGAAGUAAAGAUUUUGCUGAAAAGUGGGAAGGAGAAACCAAAAACAAAUAUAGAAGACUUACAAAUUAAAAAGGUAAAGAAGAAAAAGAAAAAGAAACACAAAGAGAAUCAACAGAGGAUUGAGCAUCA | 13.8 ratio |
| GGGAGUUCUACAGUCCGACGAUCAGACAAUGUGCUGAAGACCUGCUACAGUUCUCUGCCAAUAUUCCUGCUCUUUACAAUAGUAAACAGCUUGAAGACUUUUUCAAGGGUGGAAUAAUUAAUGAUAGUUCUGAAUUAAUUGGUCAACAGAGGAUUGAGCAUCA | 0.525 ratio |
| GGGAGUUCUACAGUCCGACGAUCUGUGGGGAUCGACACAUAUGGUUCCAAGAUUUCAAAGCAGUGGAAUGAAAAUGGAGCAGCUGAUGUGUUUCAUUGUUGUAUUGGUCUUAAGAGUGUUUUUGUAGUCCUGCAGUCUCCAGUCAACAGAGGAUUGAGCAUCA | 0.341 ratio |

Set 2
Target: Histone acetyltransferase KAT6A, winged helix 2, GST fusion (KAT6A, Homo sapiens, UniProt Q92794, residues 85-181)
Technique: protein binding microarray
Molecule type: double-stranded DNA, one strand shown
Sample: in vitro
Tested at: not given
Setting: 8-mer, flanks averaged, mean of 2 arrays, mostly near background
Relative to: not given
Direction: higher = stronger binding
Residues (chain): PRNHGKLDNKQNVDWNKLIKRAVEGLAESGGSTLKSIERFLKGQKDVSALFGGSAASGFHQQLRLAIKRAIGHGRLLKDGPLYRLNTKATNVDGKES
| Strand | E-score |
| --- | --- |
| GTGGTCAA | -0.214 |
| GCAACAGC | 0.0219 |
| ATCTATCA | 0.0842 |
| ATCTATGG | -0.13 |
| ACGGCTGA | 0.0527 |
| CCTATTAC | -0.108 |
| GCCATGCA | 0.0109 |
| CTCAACGC | -0.0957 |
| CAATGACC | -0.0293 |
| ATAAAGTC | -0.109 |
| CTGACGGA | -0.0612 |
| CATAGCGA | 0.163 |
| CGAGGCAA | 0.114 |
| AAGCTTTA | -0.117 |
| AACTGTAG | -0.136 |
| GCTAATGA | -0.159 |
| GCTGGCCC | 0.000445 |
| AATAACGC | -0.0703 |
| AAATTGCC | 0.0666 |
| ATAAACAT | -0.163 |
| ACAAACAC | 0.0845 |
| CCGTGCCA | -0.0656 |
| ACACCATA | -0.056 |
| CGAGGTAG | -0.0853 |
| AAAAAGCG | 0.00773 |

Set 3
Target: Interferon regulatory factor 7, full length, phosphomimetic (IRF7, Homo sapiens, UniProt Q92985, residues 1-503, S101K/S471D/S472D/S475D/S476D/S477D/S483D/S484D/S487D)
Sequence of UniProt Q92985 (whole entry, unmodified, looked up): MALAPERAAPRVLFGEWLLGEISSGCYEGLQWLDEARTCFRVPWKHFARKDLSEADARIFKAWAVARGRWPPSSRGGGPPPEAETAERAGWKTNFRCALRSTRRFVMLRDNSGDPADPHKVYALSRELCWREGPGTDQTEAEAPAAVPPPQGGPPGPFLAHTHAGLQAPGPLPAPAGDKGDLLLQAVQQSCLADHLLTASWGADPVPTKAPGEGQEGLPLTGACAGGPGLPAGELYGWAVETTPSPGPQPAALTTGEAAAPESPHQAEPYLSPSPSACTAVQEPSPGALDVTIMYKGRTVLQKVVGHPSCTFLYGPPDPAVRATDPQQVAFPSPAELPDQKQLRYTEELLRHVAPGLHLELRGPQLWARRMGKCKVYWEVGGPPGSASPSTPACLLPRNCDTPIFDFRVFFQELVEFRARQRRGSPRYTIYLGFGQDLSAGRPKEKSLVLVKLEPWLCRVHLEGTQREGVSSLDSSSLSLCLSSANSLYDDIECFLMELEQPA
Technique: protein-binding microarray
Molecule type: double-stranded DNA, one strand shown
Sample: in vitro
Tested at: 250 nM
Setting: 60-bp whole probe
With: salmon DNA 0.4 mg/ml
Relative to: random background probes
Direction: higher = stronger binding
Shared flanks, not repeated: GCCTAGCAC … GTCTTGATTCGCTTGACGCTGCTG
| Strand | log fluorescence [z-score] |
| --- | --- |
| TTAGGACGGGACTATCGGTTAGTGCTA | -0.387 |
| TTAGATTACAGTTTCGATTAGTGCTAG | 8.38 |
| CCTCCTCCCTGTTTCCATCTGTGCTAG | 0.951 |
| TTATATATCAGTCTCGATTAGTGCTAG | 2.03 |
| TTAGGTTTCGACTATCAGTTAGTGCTA | 5.23 |
| TCACTTTCCCCTTCCTAACTGTGCTAG | 2.89 |
| TCACTTATGATATATATAACTGTGCTA | 0.742 |
| GATGGTTCCGGTTTCGGGACGTGCTAG | 8.1 |
| CACTTTTCCTACATCAGCTGGTGCTAG | 3.31 |
| GACGGTTTCGGGTGTCGGGACGTGCTA | 5.57 |
| TCATCGATTTCTCTTTCCACTGTGCTA | 1.28 |
| TCATATATCTGTGTTATACTGTGCTAG | 0.73 |
| TTATGTATCCTTTTCCTTTAGTGCTAG | 1.33 |
| GACGATAGCAGTCTCGAGACGTGCTAG | 0.138 |
| TTAGGTATCAGTTTCGGTTAGTGCTAG | 8.37 |
| CTAGGTATCGGGTATCGGTTAGTGCTA | 2.04 |
| TGGGTGACTCTTACTCATTAGTGCTAG | -0.938 |
| TTAGAGCTGGGGTTTCGATTAGTGCTA | 4.44 |
| TCACATCTCATATAAATAACTGTGCTA | 0.984 |

Set 4
Target: RNA binding protein fox-1 homolog 2, RRM domain, GST-SBP tag (RBFOX2, Homo sapiens, UniProt O43251-10, residues 100-194)
Technique: RNA Bind-n-Seq
Molecule type: RNA
Sample: in vitro
Tested at: 365 nM
Setting: natural RNA segment, single round, ends assumed
Relative to: no-protein control
Direction: higher = stronger binding
Residues (chain): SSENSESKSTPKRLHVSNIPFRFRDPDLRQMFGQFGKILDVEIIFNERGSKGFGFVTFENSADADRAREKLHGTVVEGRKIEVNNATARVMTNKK
| Strand | RBNS enrichment (R) |
| --- | --- |
| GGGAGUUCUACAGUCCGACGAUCCGAGCCUAUCUCAGAUGUACAUUAAUAGACCUCACUGCCUUCCGGGUGAAGGUGUGUUGUCCUACAUAGAACGGUCCCUUCAGUUACCAUUCUGAUUGCUCUAUGCUGCUUGGAAUUCUCGGGUGCCAA | 0.5 |
| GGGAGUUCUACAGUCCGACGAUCGAUGGACCCGGCCCAUCCCUGGGGACGUGCUGGCGUGGCAGGUCCAGAGAGCUGCACCCUGCACGGGGCACCGCACCGCUUCCCUCCGCGCAGCUCUUCUGCCUGGUUUUUGGAAUUCUCGGGUGCCAA | 0.957 |
| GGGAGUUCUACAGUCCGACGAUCAUGGUGCCAACCAUCGGUUGUUUGGCAGCAGCUUUGAACGUAGCGCCUGUGAACUCAGGAAUGCACAGUUGACUUGGGAAGCAGUAUUACUAGAUCUGGAGGCAACCACAUGGAAUUCUCGGGUGCCAA | 1.2 |
| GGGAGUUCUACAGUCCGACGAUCGUUGACUGUCUCAGAGACUGUAAGCUCCCGGAGAGCAGGGUUGCUGUAAUGGGAAUGUUUAAGUGUUGUGUGCAAGAAAACAAAAUAAAUAUUUUGAUUUUCGUGAUUCUUGGAAUUCUCGGGUGCCAA | 1.78 |
| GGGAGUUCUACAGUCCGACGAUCGCUUGCAAUAUGAACCUUGGAAACUCAUAUAGCUGGGUGUUUGUUGAAGACUCUGCAUCUCACUGAAAAUAUCAGAAUAUUCAUGUAUUUUCCUUGUCCUUGAGUUUUCCUGGAAUUCUCGGGUGCCAA | 0.274 |
| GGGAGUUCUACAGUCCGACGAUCGGCCCUGUGUGAAGUAUUUCGAAUCUCCUCCUUGCUCUGAAACUUCAGCGAUUCCAUUGUGAUAAGCGCACAAACAGCACUGUCUGUCGGUAAUCGGUACUACUUUAUUAUGGAAUUCUCGGGUGCCAA | 0.339 |
| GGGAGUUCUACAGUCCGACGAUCAGCAAAAAGGAGCCCACAUUUAGUCCCUCGUGCAGGGUACAAGCAGGACCACCCUCAGGAUGGUGCAGAACCCAGAAUUGUGAUUGCAGCAUGUACUGUCCUGUAGGAAAUGGAAUUCUCGGGUGCCAA | 6.07 |
| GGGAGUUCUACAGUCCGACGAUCGCCAGCAUUUAGUCGUUUGAGAAUUGUAGCCUGUUGUUUUCGCUGUGACUUGGGUCUCAGUGCUAGGGUAUUGAGUCAGGCAGCUGGAGGGUUGUGGCCCGAGGCUGCAGUGGAAUUCUCGGGUGCCAA | 5.33 |

For quick reference, copied from above (set 2):
| Strand | E-score |
| --- | --- |
| ATCTATCA | 0.0842 |
| ATCTATGG | -0.13 |
| ACGGCTGA | 0.0527 |
| CCTATTAC | -0.108 |
| GCCATGCA | 0.0109 |
| CTCAACGC | -0.0957 |
| CAATGACC | -0.0293 |
| ATAAAGTC | -0.109 |
| CTGACGGA | -0.0612 |
| CATAGCGA | 0.163 |
